Measured values pooled from the literature.
Lines come from different studies, so protocols differ. ± marks the error that the study gave.
KDM4A: Lysine-specific demethylase 4A (KDM4A, Homo sapiens, UniProt O75164)
Sequence of UniProt O75164 (whole entry, looked up): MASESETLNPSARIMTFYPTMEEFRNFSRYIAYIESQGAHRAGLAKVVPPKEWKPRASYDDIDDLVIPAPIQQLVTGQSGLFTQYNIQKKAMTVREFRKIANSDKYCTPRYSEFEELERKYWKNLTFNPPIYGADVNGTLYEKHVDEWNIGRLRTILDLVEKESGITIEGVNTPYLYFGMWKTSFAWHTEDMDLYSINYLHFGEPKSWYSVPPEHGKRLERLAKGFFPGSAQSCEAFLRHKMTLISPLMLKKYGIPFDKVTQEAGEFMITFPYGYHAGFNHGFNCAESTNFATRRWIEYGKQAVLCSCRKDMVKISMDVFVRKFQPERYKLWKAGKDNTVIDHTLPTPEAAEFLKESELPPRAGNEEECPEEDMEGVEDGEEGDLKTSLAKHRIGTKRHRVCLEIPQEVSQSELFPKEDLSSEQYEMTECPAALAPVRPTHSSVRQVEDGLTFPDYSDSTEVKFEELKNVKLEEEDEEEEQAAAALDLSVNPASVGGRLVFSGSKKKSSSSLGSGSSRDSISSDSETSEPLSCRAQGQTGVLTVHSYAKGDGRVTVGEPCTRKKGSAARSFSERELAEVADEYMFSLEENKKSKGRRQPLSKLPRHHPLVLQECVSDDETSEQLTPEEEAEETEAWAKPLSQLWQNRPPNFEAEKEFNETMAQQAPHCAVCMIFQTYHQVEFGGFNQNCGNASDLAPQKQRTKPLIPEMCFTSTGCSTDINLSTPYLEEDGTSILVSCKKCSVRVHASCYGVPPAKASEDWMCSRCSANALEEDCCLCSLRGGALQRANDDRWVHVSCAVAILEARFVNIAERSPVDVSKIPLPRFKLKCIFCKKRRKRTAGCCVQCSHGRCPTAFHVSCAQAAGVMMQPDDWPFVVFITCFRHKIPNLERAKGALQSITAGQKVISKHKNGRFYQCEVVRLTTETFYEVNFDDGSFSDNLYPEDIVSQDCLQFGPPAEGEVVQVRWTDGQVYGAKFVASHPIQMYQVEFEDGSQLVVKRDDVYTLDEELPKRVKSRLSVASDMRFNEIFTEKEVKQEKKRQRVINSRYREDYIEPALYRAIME
TEC: Tyrosine-protein kinase Tec (TEC, Homo sapiens, UniProt P42680)
Sequence of UniProt P42680 (whole entry, looked up): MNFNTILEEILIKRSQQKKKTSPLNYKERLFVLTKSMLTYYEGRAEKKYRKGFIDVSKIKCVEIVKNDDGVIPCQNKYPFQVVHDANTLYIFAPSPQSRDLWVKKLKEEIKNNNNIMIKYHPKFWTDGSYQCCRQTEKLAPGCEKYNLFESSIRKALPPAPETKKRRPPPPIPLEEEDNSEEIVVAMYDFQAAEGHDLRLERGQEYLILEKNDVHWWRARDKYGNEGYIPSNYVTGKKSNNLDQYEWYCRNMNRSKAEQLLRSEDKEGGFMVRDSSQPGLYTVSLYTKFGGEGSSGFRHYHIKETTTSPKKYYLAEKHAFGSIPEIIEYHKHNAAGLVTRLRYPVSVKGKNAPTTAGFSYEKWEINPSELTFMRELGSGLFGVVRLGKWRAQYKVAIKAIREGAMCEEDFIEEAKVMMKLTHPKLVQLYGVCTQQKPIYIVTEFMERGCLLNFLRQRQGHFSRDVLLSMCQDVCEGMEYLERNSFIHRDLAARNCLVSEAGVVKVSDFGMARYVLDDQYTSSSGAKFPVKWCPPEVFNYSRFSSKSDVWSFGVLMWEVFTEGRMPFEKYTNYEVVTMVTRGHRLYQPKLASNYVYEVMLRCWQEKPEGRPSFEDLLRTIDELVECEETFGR
PDGFRB: Platelet-derived growth factor receptor beta (PDGFRB, Homo sapiens, UniProt P09619)
Sequence of UniProt P42336 (whole entry, unmodified, looked up): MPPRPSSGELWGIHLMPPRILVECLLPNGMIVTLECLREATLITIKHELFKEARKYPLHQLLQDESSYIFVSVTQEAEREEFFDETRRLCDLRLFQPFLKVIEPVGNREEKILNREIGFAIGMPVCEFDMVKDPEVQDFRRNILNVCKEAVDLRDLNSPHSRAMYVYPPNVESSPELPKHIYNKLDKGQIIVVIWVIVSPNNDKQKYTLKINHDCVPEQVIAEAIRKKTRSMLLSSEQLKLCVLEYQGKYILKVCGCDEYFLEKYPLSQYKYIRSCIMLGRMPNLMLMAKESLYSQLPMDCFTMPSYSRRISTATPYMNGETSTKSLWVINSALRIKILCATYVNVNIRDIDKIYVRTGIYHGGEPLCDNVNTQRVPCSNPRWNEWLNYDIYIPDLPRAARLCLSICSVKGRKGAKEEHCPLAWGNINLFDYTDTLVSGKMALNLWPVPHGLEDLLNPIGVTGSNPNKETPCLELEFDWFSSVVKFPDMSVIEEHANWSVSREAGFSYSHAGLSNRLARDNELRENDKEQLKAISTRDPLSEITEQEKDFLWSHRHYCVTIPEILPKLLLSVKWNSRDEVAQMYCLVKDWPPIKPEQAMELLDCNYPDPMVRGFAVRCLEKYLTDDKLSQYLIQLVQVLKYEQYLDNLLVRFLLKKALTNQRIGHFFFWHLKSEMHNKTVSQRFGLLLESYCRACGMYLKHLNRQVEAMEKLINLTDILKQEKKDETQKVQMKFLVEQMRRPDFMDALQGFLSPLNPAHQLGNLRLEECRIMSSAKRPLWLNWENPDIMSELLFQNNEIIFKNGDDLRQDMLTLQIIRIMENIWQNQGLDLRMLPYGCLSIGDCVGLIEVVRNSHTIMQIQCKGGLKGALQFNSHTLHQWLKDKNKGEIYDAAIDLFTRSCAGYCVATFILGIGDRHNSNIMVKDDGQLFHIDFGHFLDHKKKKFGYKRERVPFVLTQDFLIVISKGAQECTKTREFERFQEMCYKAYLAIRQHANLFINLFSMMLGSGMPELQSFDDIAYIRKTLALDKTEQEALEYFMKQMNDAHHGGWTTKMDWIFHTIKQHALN
Sequence of UniProt P09619 (whole entry, looked up): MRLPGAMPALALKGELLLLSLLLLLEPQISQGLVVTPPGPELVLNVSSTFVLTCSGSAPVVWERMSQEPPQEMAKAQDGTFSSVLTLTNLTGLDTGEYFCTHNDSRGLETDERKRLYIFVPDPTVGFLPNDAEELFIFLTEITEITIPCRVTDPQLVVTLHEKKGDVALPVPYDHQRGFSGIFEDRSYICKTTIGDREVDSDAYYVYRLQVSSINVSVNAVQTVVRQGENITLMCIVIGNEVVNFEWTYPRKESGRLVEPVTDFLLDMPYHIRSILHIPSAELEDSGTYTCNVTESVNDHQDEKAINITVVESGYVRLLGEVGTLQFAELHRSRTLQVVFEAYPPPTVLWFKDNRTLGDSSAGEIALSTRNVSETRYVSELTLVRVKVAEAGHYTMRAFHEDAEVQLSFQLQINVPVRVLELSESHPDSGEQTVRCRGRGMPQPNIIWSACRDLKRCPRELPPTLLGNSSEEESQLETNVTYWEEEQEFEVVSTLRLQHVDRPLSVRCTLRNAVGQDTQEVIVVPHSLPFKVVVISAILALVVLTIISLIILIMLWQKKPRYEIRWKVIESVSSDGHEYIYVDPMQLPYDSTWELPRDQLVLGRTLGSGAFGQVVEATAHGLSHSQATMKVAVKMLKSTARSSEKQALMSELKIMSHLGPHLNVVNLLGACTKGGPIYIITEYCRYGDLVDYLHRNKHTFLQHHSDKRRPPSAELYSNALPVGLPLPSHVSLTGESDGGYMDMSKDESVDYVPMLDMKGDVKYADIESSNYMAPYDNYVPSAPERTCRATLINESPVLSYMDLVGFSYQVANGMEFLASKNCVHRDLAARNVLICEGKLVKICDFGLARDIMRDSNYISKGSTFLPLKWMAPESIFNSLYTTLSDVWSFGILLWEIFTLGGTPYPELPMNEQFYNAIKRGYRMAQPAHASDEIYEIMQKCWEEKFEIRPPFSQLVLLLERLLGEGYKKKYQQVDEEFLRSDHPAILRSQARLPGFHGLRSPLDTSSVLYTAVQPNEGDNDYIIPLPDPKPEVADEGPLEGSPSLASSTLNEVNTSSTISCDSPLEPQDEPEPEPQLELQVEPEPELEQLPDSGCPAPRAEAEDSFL
Sequence of UniProt Q96SB4 (whole entry, looked up): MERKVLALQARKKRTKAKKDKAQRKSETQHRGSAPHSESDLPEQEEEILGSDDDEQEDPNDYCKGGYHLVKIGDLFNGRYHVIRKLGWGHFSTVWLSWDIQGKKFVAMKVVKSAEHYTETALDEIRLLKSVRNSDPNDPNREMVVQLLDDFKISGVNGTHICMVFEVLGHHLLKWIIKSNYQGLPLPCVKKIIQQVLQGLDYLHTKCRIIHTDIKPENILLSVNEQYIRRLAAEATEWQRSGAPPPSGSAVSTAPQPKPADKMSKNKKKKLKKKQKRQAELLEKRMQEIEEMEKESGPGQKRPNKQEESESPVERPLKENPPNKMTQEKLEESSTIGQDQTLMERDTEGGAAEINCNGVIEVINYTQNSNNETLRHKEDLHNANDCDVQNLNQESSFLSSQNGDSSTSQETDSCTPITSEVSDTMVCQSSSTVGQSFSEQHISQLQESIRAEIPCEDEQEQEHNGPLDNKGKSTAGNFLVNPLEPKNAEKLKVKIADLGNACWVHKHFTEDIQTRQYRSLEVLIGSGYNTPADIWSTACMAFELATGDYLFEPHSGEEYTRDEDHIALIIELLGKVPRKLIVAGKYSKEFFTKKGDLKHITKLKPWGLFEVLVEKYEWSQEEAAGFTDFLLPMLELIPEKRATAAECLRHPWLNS
Sequence of UniProt P45983 (whole entry, looked up): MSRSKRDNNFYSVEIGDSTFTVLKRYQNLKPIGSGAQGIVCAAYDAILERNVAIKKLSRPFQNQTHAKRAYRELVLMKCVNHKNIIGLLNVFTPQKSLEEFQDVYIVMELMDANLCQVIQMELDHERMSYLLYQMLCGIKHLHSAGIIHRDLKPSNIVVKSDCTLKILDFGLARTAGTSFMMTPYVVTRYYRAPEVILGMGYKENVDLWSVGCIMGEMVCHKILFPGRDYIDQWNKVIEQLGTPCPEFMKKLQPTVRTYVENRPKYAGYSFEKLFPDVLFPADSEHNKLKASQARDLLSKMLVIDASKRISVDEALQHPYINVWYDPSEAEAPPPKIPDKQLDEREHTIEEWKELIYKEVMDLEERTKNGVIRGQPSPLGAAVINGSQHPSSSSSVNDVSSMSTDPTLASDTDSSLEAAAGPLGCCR

CC(C)C[C@H](NC(=O)C[C@H](O)[C@H](CC(C)C)NC(=O)[C@H](Cc1c[nH]cn1)NC(=O)CNC(=O)[C@@H](NC(=O)[C@H](C)NC(=O)[C@H](Cc1c[nH]c2ccccc12)NC(=O)[C@H](CCC(N)=O)NC(=O)[C@@H](Cc1ccccc1)NC(=O)COCCOCCNC(=O)CCC(C(=O)O)N1CCN(CC(=O)O)CCN(CC(=O)O)CCN(CC(=O)O)CC1)C(C)C)C(N)=O (some centres unmarked) [lutetium-177 labelled] has a tissue uptake of 2 ± 0.3 %ID/g (BALB/c nu/nu mice, female, PC-3 xenograft tumour; intravenous, 100 pmol, 48 h, added: PA 300 µg).
Cn1cc(-c2ccc(-c3cncc(Cl)c3N3CCC4(CCNC4=O)CC3)cc2)cn1 — result for “log2 fold change”: -2.26 (COLO 205; gene expression, microarray, refers to: ARHGEF39 (C9orf100) mRNA; concentration not given, 6 h; relative to: untreated cells).
O=C(O)c1ccc(Nc2ncc3c(n2)-c2ccc(Cl)cc2C(c2c(F)cccc2F)=NC3)cc1 has a remaining activity of 88% (human IGF-1R(h); kinase activity; 1 µM).
With COc1cc(N2CCN(C)CC2)ccc1Nc1nc(N)n(C(=S)NCc2c(Cl)cccc2Cl)n1 the remaining activity was 21% (STK25 (Homo sapiens, UniProt O00506); enzyme activity; 10 µM; relative to: control).
The remaining activity of C/C(CC(O)(C(F)(F)F)C(F)(F)F)=N/Nc1ccc([N+](=O)[O-])cc1[N+](=O)[O-] is reported as 92% (KDM4A; concentration not given).
The remaining activity of CC#CC(=O)N1CCC[C@H]1c1nc(-c2ccc(C(=O)Nc3ccccn3)cc2)c2c(N)nccn12 is reported as 43.5 ± 0.9% (TEC; kinase activity, inhibitor, HotSpot radiometric; 100 nM, added: ATP 10 µM).
With CN(C)CC#Cc1ccc2[nH]c3c(c2c1)-c1nc(N)ncc1CCC3 the remaining activity was 72% (TSSK4 (Homo sapiens, UniProt Q6SA08); kinase activity, inhibitor, radiometric; 1 µM, added: ATP at Km).
For C1=C/COCc2cc(ccc2OCCN2CCCC2)Nc2nccc(n2)-c2cccc(c2)COC/1, the remaining activity was 84% (EGFR (Homo sapiens, UniProt P00533, G719S); concentration not given; relative to: untreated control).
Cc1ccc(NC(=O)c2ccc(C)c(C(F)(F)F)c2)cc1C#Cc1nn(C2CCC(O)CC2)c2ncnc(N)c12 (centres unmarked) gave a remaining activity of 92% (Phosphatidylinositol 4,5-bisphosphate 3-kinase catalytic subunit alpha isoform, with p65 alpha (PIK3CA, Homo sapiens, UniProt P42336); enzyme activity, inhibitor; 10 µM, p110a/p65a)(h human, added: ATP 10 µM).
With COc1cc(Nc2ncc3c(n2)-c2ccc(Cl)cc2C(c2c(F)cccc2OC)=NC3)ccc1C(=O)O the remaining activity was 47% (ABL2; kinase activity; 1 µM).
N#Cc1ccccc1CSCCNC(=O)C1(C(=O)O)CC=CCC1 (centres unmarked) gave a remaining activity of 82% (malate dehydrogenase; enzyme activity, inhibitor; 200 µM, pH 7.0, 1% DMSO, aggregation counter-screen).
With C/C(=N/Nc1ccc([N+](=O)[O-])cc1[N+](=O)[O-])c1ccccc1 the remaining activity was 100% (KDM4A; concentration not given).
With C[C@H]1[C@H](OC(=O)CCC(=O)O)O[C@@H]2O[C@@]3(C)CC[C@H]4[C@H](C)CC[C@@H]1[C@@]24OO3 the remaining activity was 50.1% (Non-structural polyprotein pORF1, helicase domain (Hepatitis E virus genotype 1, UniProt P33424); ATPase activity, inhibitor, colorimetric; 156 µM; relative to: untreated).
COc1cc(/C=C/C(=O)N2CCC=CC2=O)cc(OC)c1OC has an EC90 of 8.98 µM (Toxoplasma gondii; parasite growth, luciferase reporter; HFF, tachyzoite; 72 h).
Cc1cc(Nc2cc(N3CCN(C)CC3)nc(Sc3ccc(NC(=O)C4CC4)cc3)n2)[nH]n1 gave a remaining activity of 98% (SRPK1 (Homo sapiens, UniProt Q96SB4); kinase activity, KinaseProfiler; 0.03 µM, species human; relative to: control).
With Cc1c(C[S+](C)[O-])cccc1NS(=O)(=O)c1cccc(Cl)c1O (centres unmarked) the remaining activity was 84% (malate dehydrogenase; enzyme activity, inhibitor; 200 µM, pH 7.0, 1% DMSO, aggregation counter-screen).
The remaining activity of CNc1ncc2c(/C=C/C(=O)N3CCC(OC)CC3)nn(Cc3cccc(C(F)(F)F)c3)c2n1 is reported as 101% (ULK2 (Homo sapiens, UniProt Q8IYT8); kinase activity, inhibitor; 1 µM; relative to: untreated control).
CCCOc1ccc(OC)c(F)c1C(=O)c1ccc(C(=O)N[C@@H]2CNC[C@H]2NC(=O)c2ccc3[nH]ncc3c2)cc1 has a remaining activity of 99% (BTK (Homo sapiens, UniProt Q06187, R28H); enzyme activity; 10 µM).
With C=CC(=O)N1CCC[C@@H](n2nc(-c3ccc(Oc4ccccc4)cc3)c3c(N)ncnc32)C1 the remaining activity was 132% (PTK2 (Homo sapiens, UniProt Q05397); 10 µM).
COc1cc(-c2cncc3c2CN(C)Cc2cc(N4CCNCC4)ccc2-3)cc(OC)c1OC has a remaining activity of 108% (Phosphatidylinositol 4,5-bisphosphate 3-kinase catalytic subunit alpha isoform, with p85 alpha (PIK3CA, Homo sapiens, UniProt P42336, E545K); kinase activity; 1 µM, p110a(E545K)/p85a)(h human, added: ATP 10 µM; relative to: DMSO).
The remaining activity of Cc1cc(NC(=O)c2cccc(NC(=O)/C=C/CN(C)C)c2)ccc1Nc1nccc(-c2cccnc2)n1 is reported as 1.07 (MAPK8 (Homo sapiens, UniProt P45983); enzyme activity, inhibitor; 8.36e-05 µM, 18 h, unit not given, added: GSH 10 mM pre-incubation; relative to: vehicle).
For C=CC(=O)N1CCC([C@@H]2CCNc3c(C(N)=O)c(-c4ccc(Oc5ccccc5)cc4)nn32)CC1, the remaining activity was 89.9 ± 1.8% (LYN (Homo sapiens, UniProt P07948); kinase activity, inhibitor, HotSpot radiometric; 100 nM, added: ATP 10 µM).
COc1cc(F)ccc1-c1ncnc(Nc2cccc(C[S@](C)(=N)=O)c2)n1 gave a remaining activity of 41% (PDGFRB; kinase activity; 10 µM, added: 10 µM ATP).
NC/C(=C\F)COc1cccc(Cn2c(=S)[nH]c(=O)c3[nH]cnc32)c1 has a remaining activity of 42.3% (Peroxidasin homolog (PXDN, Homo sapiens, UniProt Q92626); Amplex UltraRed; 10 µM; relative to: control).
With Cc1cccc(C)c1C(=O)OCC(=O)[C@H](CCCCN)NC(=O)[C@H](CCCNC(=N)N)NC(=O)OCc1ccccc1 the remaining activity was 72% (Ctsc (Mus musculus, UniProt P97821); inhibitor; 1 µM, room temperature, added: AMC substrate).
O=C(NC1CCC1)c1ccc2nc(-c3cccc(NS(=O)(=O)NCCN4CCCCC4)c3)cn2c1 gave a remaining activity of 99% (PDGFRB; enzyme activity; 10 µM).
O=S(=O)(NCc1ccccc1OC(F)(F)F)c1cc(Cl)cc(Cl)c1O gave a remaining activity of 88% (malate dehydrogenase; enzyme activity, inhibitor; 200 µM, pH 7.0, 1% DMSO, aggregation counter-screen).
The remaining activity of CC(C)OCCn1c(=S)[nH]c(=O)c2[nH]ccc21 is reported as 16.1% (Myeloperoxidase (MPO, Homo sapiens, UniProt P05164); LDL lipid peroxidation, inhibitor, cholesteryl ester hydroperoxide; 3.333 µM).
For Cn1ncc(S(=O)(=O)NC2CCSc3ccc(Cl)cc32)c1C(=O)O (centres unmarked), the remaining activity was 105% (malate dehydrogenase; enzyme activity, inhibitor; 200 µM, pH 7.0, 1% DMSO, aggregation counter-screen).
For c1coc(-c2n[nH]cc2-c2ccnc3ccccc23)c1, “log2 fold change” read -0.1 (VPS15 (Candida albicans); kinase binding, MIB/MS competition; Candida albicans lysate; 10 µM; relative to: DMSO).
O=S(=O)(NCCCOc1ccccc1F)c1cc(Cl)cc(Cl)c1O gave a remaining activity of 95% (malate dehydrogenase; enzyme activity, inhibitor; 200 µM, pH 7.0, 1% DMSO, aggregation counter-screen).
Under “patients with adverse event”, CNC(=O)c1ccc(-c2cnc3ncc(Cc4ccc5ncccc5c4)n3n2)cc1F is recorded as 9% (refers to: Ascites; hepatocellular carcinoma patients; oral, 600 mg twice daily, expansion cohort, grade 3-4).
COc1cccc(Cl)c1[C@@H]1C[C@H]1NS(=O)(=O)c1ccsc1C(=O)O gave a remaining activity of 135% (malate dehydrogenase; enzyme activity, inhibitor; 200 µM, pH 7.0, 1% DMSO, aggregation counter-screen).
C=CC[C@@H]1c2ccc(OC)c(OC)c2CN2CCc3cc4c(cc3[C@H]12)OCO4 has a remaining activity of 21.5% (P2X purinoceptor 7 (P2rx7, Mus musculus, UniProt Q9Z1M0, A312V); ATP-evoked current, inhibitor, whole-cell patch clamp; 10 µM, A312V variant).
For COc1cc(NS(=O)(=O)c2cc(Cl)cc(Cl)c2O)c(F)cc1C#N, the remaining activity was 73% (malate dehydrogenase; enzyme activity, inhibitor; 40 µM, pH 7.0, 1% DMSO, aggregation counter-screen).
With COc1ccc(F)cc1C(=O)NCc1ccc(-c2nn([C@@H](C)C(F)(F)F)c(N)c2C(N)=O)cc1 the remaining activity was 97.2% (TEC; kinase activity, inhibitor, HotSpot radiometric; 100 nM, added: ATP 10 µM).
The remaining activity of O=C(O)c1occc1S(=O)(=O)NCC1CC(c2ccccc2)C1 (centres unmarked) is reported as 95% (malate dehydrogenase; enzyme activity, inhibitor; 200 µM, pH 7.0, 1% DMSO, aggregation counter-screen).
For CCCCCCNc1nc(NC2CCN(C)CC2)c2cc(OC)c(OC)cc2n1, the EC90 was 1.19 µM (Toxoplasma gondii; parasite growth; HFF, bradyzoite, alkaline-induced).

Excerpt of the above:
With C=CC(=O)N1CCC[C@@H](n2nc(-c3ccc(Oc4ccccc4)cc3)c3c(N)ncnc32)C1 the remaining activity was 132% (PTK2 (Homo sapiens, UniProt Q05397); 10 µM).
Cc1ccc(NC(=O)c2ccc(C)c(C(F)(F)F)c2)cc1C#Cc1nn(C2CCC(O)CC2)c2ncnc(N)c12 (centres unmarked) gave a remaining activity of 92% (Phosphatidylinositol 4,5-bisphosphate 3-kinase catalytic subunit alpha isoform, with p65 alpha (PIK3CA, Homo sapiens, UniProt P42336); enzyme activity, inhibitor; 10 µM, p110a/p65a)(h human, added: ATP 10 µM).
O=C(NC1CCC1)c1ccc2nc(-c3cccc(NS(=O)(=O)NCCN4CCCCC4)c3)cn2c1 gave a remaining activity of 99% (PDGFRB; enzyme activity; 10 µM).
With COc1cc(Nc2ncc3c(n2)-c2ccc(Cl)cc2C(c2c(F)cccc2OC)=NC3)ccc1C(=O)O the remaining activity was 47% (ABL2; kinase activity; 1 µM).
With COc1ccc(F)cc1C(=O)NCc1ccc(-c2nn([C@@H](C)C(F)(F)F)c(N)c2C(N)=O)cc1 the remaining activity was 97.2% (TEC; kinase activity, inhibitor, HotSpot radiometric; 100 nM, added: ATP 10 µM).
The remaining activity of CNc1ncc2c(/C=C/C(=O)N3CCC(OC)CC3)nn(Cc3cccc(C(F)(F)F)c3)c2n1 is reported as 101% (ULK2 (Homo sapiens, UniProt Q8IYT8); kinase activity, inhibitor; 1 µM; relative to: untreated control).
